# Results collected from several papers.
# Protocols differ between the studies behind these lines.
# Organism: Escherichia coli
Compound,test,system,conditions,MIC
CC1(C)[C@H](NC(=O)/C(=N\OC2(C(=O)O)CCCC2)c2csc(N)n2)C(=O)N1OS(=O)(=O)O,agar dilution,"CDC 1001728, NDM-1",,0.5 µg/mL
CC[C@H](C)[C@H](NC(=O)[C@@H](CCCNC(=N)N)NC(=O)[C@H](CCCNC(=N)N)NC(=O)[C@H](CC(N)=O)NC(=O)[C@H](Cc1c[nH]c2ccccc12)NC(=O)[C@H](CCCNC(=N)N)NC(=O)[C@@H]1CCCN1C(=O)[C@H](CCCNC(=N)N)NC(=O)[C@@H]1CCCN1C(=O)[C@H](CC(C)C)NC(=O)[C@H](Cc1ccc(O)cc1)NC(=O)[C@@H]1CCCN1C(=O)[C@@H]1CCCN1C(=O)[C@H](CCCCN)NC(=O)[C@H](CC(=O)O)NC(=O)[C@@H](N)C(C)C)C(=O)N[C@@H](Cc1ccc(O)cc1)C(=O)N[C@@H](CC(N)=O)C(=O)N[C@H](CCCNC(=N)N)C(N)=O,broth microdilution,MC4100,"18 h, 37 °C, 25% MHB2",4 µg/mL
CC(C)C[C@H](NC(=O)[C@H](CCCCN)NC(=O)[C@H](CC(C)C)NC(=O)[C@H](CCCCN)NC(=O)C1CCCC=CCCC(NC(=O)[C@H](CCCCN)NC(=O)[C@H](CC(C)C)NC(=O)[C@H](CCCCN)NC(=O)[C@@H](N)CC(C)C)C(=O)N[C@@H](CCCCN)C(=O)N2CCC[C@@H]2C(=O)NCC(=O)N[C@@H](CCCCN)C(=O)N1)C(N)=O (stereo partly shown),broth microdilution,"ATCC 25922, Mueller-Hinton broth","18 h, 37 °C",8 µM
CC[C@H](C)[C@H](NC(=O)[C@@H]1CCCN1C(=O)CNC(=O)[C@H](CC(C)C)NC(=O)[C@H](CCCCN)NC(=O)[C@H](CCCNC(=N)N)NC(=O)[C@H](Cc1c[nH]c2ccccc12)NC(=O)[C@H](C)NC(=O)[C@H](CC(N)=O)NC(=O)[C@H](CCCCN)NC(=O)[C@H](CC(C)C)NC(=O)[C@H](CCCCN)NC(=O)[C@H](CC(N)=O)NC(=O)[C@H](CCCNC(=N)N)NC(=O)[C@H](C)NC(=O)[C@H](CCCNC(=N)N)NC(=O)[C@H](CCCNC(=N)N)NC(=O)[C@H](Cc1ccccc1)NC(=O)[C@H](Cc1c[nH]c2ccccc12)NC(=O)CN)C(=O)N[C@H](C(=O)NCC(=O)N1CCC[C@H]1C(=O)N[C@@H](CC(C)C)C(=O)N[C@@H](CC(C)C)C(=O)N[C@H](C(=O)N[C@@H](CCCNC(=N)N)C(=O)O)[C@@H](C)O)C(C)C,broth microdilution,K88,,0.34 log10 µg/mL
CC1(C)[C@H](NC(=O)/C(=N\OCC(=O)N2CCC(C(=O)O)C2)c2nsc(N)n2)C(=O)N1OS(=O)(=O)O (stereo partly shown),agar dilution,"CDC 1001728, NDM-1",,> 64 µg/mL
CC[C@H](C)[C@H](NC(=O)[C@@H](CCCNC(=N)N)NC(=O)[C@H](CCCNC(=N)N)NC(=O)[C@@H]1CCCN1C(=O)[C@@H]1CCCN1C(=O)[C@H](CCCCNC(=N)N)NC(=O)[C@@H]1CCCN1C(=O)[C@H](CCCNC(=N)N)NC(=O)[C@@H]1CCCN1C(=O)[C@H](CC(C)C)NC(=O)[C@H](Cc1ccc(O)cc1)NC(=O)[C@@H]1CCCN1C(=O)[C@@H]1CCCN1C(=O)[C@H](CCCCN)NC(=O)[C@H](CC(=O)O)NC(=O)[C@@H](N)C(C)C)C(=O)N[C@@H](Cc1ccc(O)cc1)C(=O)N[C@@H](CC(N)=O)C(=O)N[C@H](CCCNC(=N)N)C(N)=O,broth microdilution,ATCC 25922,"18 h, 37 °C, 25% MHB2",16 µg/mL
Cc1ccc2nc(C)c(C(=O)C(=O)NCc3ccc(N(C)C)cc3)n2c1,"microbial growth, broth dilution",,,> 128 µM
CC(C)C[C@H](NC(=O)[C@@H](NC(=O)[C@H](CCCCN)NC(=O)[C@H](CCCCN)NC(=O)[C@H](CC(C)C)NC(=O)[C@H](Cc1c[nH]c2ccccc12)NC(=O)[C@H](CCCCN)NC(=O)[C@H](CC(C)C)NC(=O)[C@H](CC(C)C)NC(=O)[C@H](CCCCN)NC(=O)[C@H](CCCCN)NC(=O)[C@@H](N)C(C)C)C(C)C)C(N)=O,,,"24 h, 37 °C, Mueller-Hinton broth, KCl 4.5 mM",64 µM
CO[C@@H](C(N)=O)[C@H](NC(=O)c1ccc(NC(=O)[C@@H](N)Cc2ccccc2)cc1)C(=O)Nc1ccc(C(=O)Nc2ccc(C(=O)Nc3ccc(C(=O)O)c(O)c3OC(C)C)c(O)c2OC(C)C)cc1,,,,0.03 µg/mL
CCCCCCCC(=O)N[C@@H](CCN)C(=O)N[C@H](C(=O)N[C@@H](CCN)C(=O)N[C@H]1CCNC(=O)[C@H]([C@@H](C)O)NC(=O)[C@H](CCN)NC(=O)[C@H](CCN)NC(=O)[C@H](CC(C)C)NC(=O)[C@@H](Cc2ccc(Br)cc2)NC(=O)[C@H](CCN)NC1=O)[C@@H](C)O,,MG1655,,0.25 µg/mL
CC[C@H](C)[C@H](NC(=O)[C@@H](CCCNC(=N)N)NC(=O)[C@H](CCCNC(=N)N)NC(=O)[C@@H](NC(=O)[C@H](Cc1c[nH]c2ccccc12)NC(=O)[C@H](CCCNC(=N)N)NC(=O)[C@@H]1CCCN1C(=O)[C@H](CCCNC(=N)N)NC(=O)[C@@H]1CCCN1C(=O)[C@H](CC(C)C)NC(=O)[C@H](Cc1ccc(O)cc1)NC(=O)[C@@H]1CCCN1C(=O)[C@@H]1CCCN1C(=O)[C@H](CCCCN)NC(=O)[C@H](CC(=O)O)NC(=O)[C@@H](N)C(C)C)[C@@H](C)O)C(=O)N[C@@H](Cc1ccc(O)cc1)C(=O)N[C@@H](CC(N)=O)C(=O)N[C@H](CCCNC(=N)N)C(N)=O,broth microdilution,MC4100,"18 h, 37 °C, 25% MHB2",8 µg/mL
CC[C@H](C)[C@H](NC(=O)[C@H](Cc1c[nH]c2ccccc12)NC(=O)c1ccccc1)C(=O)N[C@@H](CCCNC(=N)N)C(=O)N[C@@H](Cc1ccc(O)cc1)C(=O)N[C@@H](CCCCN)C(=O)N[C@@H](Cc1c[nH]c2ccccc12)C(=O)N1CCC[C@@H]1C(=O)N[C@@H](CCCNC(=N)N)C(=O)N[C@@H](CCCCN)C(=O)N[C@H](C(=O)N[C@H](C(=O)N[C@@H](CCCNC(=N)N)C(=O)N[C@@H](Cc1ccc(O)cc1)C(=O)N[C@@H](Cc1c[nH]c2ccccc12)C(=O)N[C@H](C(=O)NCC(=O)N1CCC[C@H]1C(N)=O)[C@@H](C)O)C(C)C)C(C)C,,DH5α,"16 h, 37 °C",> 100 µM
CC[C@H](C)[C@H](NC(=O)[C@@H](CCCNC(=N)N)NC(=O)[C@H](CCCNC(=N)N)NC(=O)[C@@H](NC(=O)[C@H](Cc1c[nH]c2ccccc12)NC(=O)[C@H](CCCNC(=N)N)NC(=O)[C@@H]1CCCN1C(=O)[C@H](CCCNC(=N)N)NC(=O)[C@@H]1CCCN1C(=O)[C@H](CC(C)C)NC(=O)[C@H](Cc1ccc(O)cc1)NC(=O)[C@@H]1CCCN1C(=O)[C@@H]1CCCN1C(=O)[C@H](CCCCN)NC(=O)[C@H](CC(=O)O)NC(=O)[C@@H](N)C(C)C)C(C)C)C(=O)N[C@@H](Cc1ccc(O)cc1)C(=O)N[C@@H](CC(N)=O)C(=O)N[C@H](CCCNC(=N)N)C(N)=O,broth microdilution,BW25113,"18 h, 37 °C, 25% MHB2",16 µg/mL
CC(C)C[C@H](NC(=O)[C@@H](NC(=O)[C@H](CCCCN)NC(=O)[C@H](CCCCN)NC(=O)[C@H](CC(C)C)NC(=O)[C@H](Cc1c[nH]c2ccccc12)NC(=O)[C@H](CCCCN)NC(=O)[C@H](Cc1c[nH]c2ccccc12)NC(=O)[C@H](CC(C)C)NC(=O)[C@H](CCCCN)NC(=O)[C@H](CCCCN)NC(=O)[C@@H](N)C(C)C)C(C)C)C(N)=O,,,"24 h, 37 °C, Mueller-Hinton broth, no additive",16 µM
CSCC[C@H](NC=O)C(=O)N[C@@H](CCCNC(=N)N)C(=O)N[C@H](C(=O)NCC(=O)N[C@@H](CC(N)=O)C(=O)N[C@@H](C)C(=O)N[C@@H](CC(N)=O)C(=O)NCC(=O)N1CCN(c2cc3c(cc2F)c(=O)c(C(=O)O)cn3C2CC2)CC1)[C@@H](C)O,multistep resistance selection,K-12 MG1655,day 7,6.24 µM
CO/N=C(\C(=O)N[C@@H]1C(=O)N2C(C(=O)O)=C(COC(N)=O)CS[C@H]12)c1ccco1,,"25922, Mueller-Hinton broth","18 to 24 h, 37 °C",2 µg/mL
CC(C)C[C@@H](NC(=O)[C@@H](CC(C)C)NC(=O)[C@@H](CCCCN)NC(=O)[C@@H](CCCCNC(=O)[C@@H](CC(C)C)NC(=O)[C@@H](CC(C)C)NC(=O)[C@@H](CCCCNC(=O)[C@@H](CC(C)C)NC(=O)[C@@H](CCCCN)NC(=O)[C@@H](CCCCNC(=O)[C@@H](CC(C)C)NC(=O)[C@H](N)CCCCN)NC(=O)[C@@H](CC(C)C)NC(=O)[C@H](N)CCCCN)NC(=O)[C@@H](CC(C)C)NC(=O)[C@@H](CCCCN)NC(=O)[C@@H](CCCCNC(=O)[C@@H](CC(C)C)NC(=O)[C@H](N)CCCCN)NC(=O)[C@@H](CC(C)C)NC(=O)[C@H](N)CCCCN)NC(=O)[C@@H](CC(C)C)NC(=O)[C@@H](CC(C)C)NC(=O)[C@@H](CCCCNC(=O)[C@@H](CC(C)C)NC(=O)[C@@H](CCCCN)NC(=O)[C@@H](CCCCNC(=O)[C@@H](CC(C)C)NC(=O)[C@H](N)CCCCN)NC(=O)[C@@H](CC(C)C)NC(=O)[C@H](N)CCCCN)NC(=O)[C@@H](CC(C)C)NC(=O)[C@@H](CCCCN)NC(=O)[C@@H](CCCCNC(=O)[C@@H](CC(C)C)NC(=O)[C@H](N)CCCCN)NC(=O)[C@@H](CC(C)C)NC(=O)[C@H](N)CCCCN)C(N)=O,broth microdilution,Escherichia coli blaOXA-48,"20 h, 37 °C",16 µg/mL
CC[C@H](C)[C@H](NC(=O)[C@H](Cc1c[nH]c2ccccc12)NC(=O)[C@H](CCCNC(=N)N)NC(=O)[C@@H]1CCCN1C(=O)[C@H](CCCNC(=N)N)NC(=O)[C@@H]1CCCN1C(=O)[C@H](CC(C)C)NC(=O)[C@H](Cc1ccc(O)cc1)NC(=O)[C@@H]1CCCN1C(=O)[C@@H]1CCCN1C(=O)[C@H](CCCCN)NC(=O)[C@H](CC(=O)O)NC(=O)[C@@H](N)C(C)C)C(=O)N[C@@H](CCCNC(=N)N)C(=O)N[C@H](CCCNC(=N)N)C(=O)N[C@H](C(=O)N[C@@H](Cc1ccc(O)cc1)C(=O)N[C@@H](CC(N)=O)C(=O)N[C@H](CCCNC(=N)N)C(N)=O)[C@@H](C)CC,broth microdilution,MC4100,"18 h, 37 °C, 25% MHB2",32 µg/mL
CC[C@H](C)[C@H](NC(=O)[C@H](Cc1ccc(O)cc1)NC(=O)[C@@H](NC(=O)[C@@H]1CCCN1C(=O)[C@H](CCCNC(=N)N)NC(=O)[C@H](CC(N)=O)NC(=O)[C@H](CC(N)=O)NC(=O)CNC(=O)CCCCCNC(=O)CCCC[C@@H]1SC[C@@H]2NC(=O)N[C@@H]21)C(C)C)C(=O)N1CCC[C@H]1C(=O)N[C@@H](CCC(N)=O)C(=O)N1CCC[C@H]1C(=O)N[C@@H](CCCNC(=N)N)C(=O)N1CCC[C@H]1C(=O)N1CCC[C@H]1C(=O)N[C@@H](Cc1c[nH]cn1)C(=O)N1CCC[C@H]1C(=O)N[C@@H](CCCNC(=N)N)C(=O)N[C@@H](CC(C)C)C(=O)O,broth microdilution,"M/14072, Mueller-Hinton broth",,> 160 µM

# A few entries again:
Compound,test,system,conditions,MIC
CC[C@H](C)[C@H](NC(=O)[C@@H]1CCCN1C(=O)CNC(=O)[C@H](CC(C)C)NC(=O)[C@H](CCCCN)NC(=O)[C@H](CCCNC(=N)N)NC(=O)[C@H](Cc1c[nH]c2ccccc12)NC(=O)[C@H](C)NC(=O)[C@H](CC(N)=O)NC(=O)[C@H](CCCCN)NC(=O)[C@H](CC(C)C)NC(=O)[C@H](CCCCN)NC(=O)[C@H](CC(N)=O)NC(=O)[C@H](CCCNC(=N)N)NC(=O)[C@H](C)NC(=O)[C@H](CCCNC(=N)N)NC(=O)[C@H](CCCNC(=N)N)NC(=O)[C@H](Cc1ccccc1)NC(=O)[C@H](Cc1c[nH]c2ccccc12)NC(=O)CN)C(=O)N[C@H](C(=O)NCC(=O)N1CCC[C@H]1C(=O)N[C@@H](CC(C)C)C(=O)N[C@@H](CC(C)C)C(=O)N[C@H](C(=O)N[C@@H](CCCNC(=N)N)C(=O)O)[C@@H](C)O)C(C)C,broth microdilution,K88,,0.34 log10 µg/mL
CC1(C)[C@H](NC(=O)/C(=N\OCC(=O)N2CCC(C(=O)O)C2)c2nsc(N)n2)C(=O)N1OS(=O)(=O)O (stereo partly shown),agar dilution,"CDC 1001728, NDM-1",,> 64 µg/mL
CSCC[C@H](NC=O)C(=O)N[C@@H](CCCNC(=N)N)C(=O)N[C@H](C(=O)NCC(=O)N[C@@H](CC(N)=O)C(=O)N[C@@H](C)C(=O)N[C@@H](CC(N)=O)C(=O)NCC(=O)N1CCN(c2cc3c(cc2F)c(=O)c(C(=O)O)cn3C2CC2)CC1)[C@@H](C)O,multistep resistance selection,K-12 MG1655,day 7,6.24 µM
